Experimental data from different studies.
Parts stem from different laboratories: compare values within a part only.

Block 1
Target: RNA binding protein fox-1 homolog 2, RRM domain, GST-SBP tag (RBFOX2, Homo sapiens, UniProt O43251-10, residues 100-194)
Technique: RNA Bind-n-Seq
Form: RNA
Sample: in vitro
Concentration: 365 nM
Setting: natural RNA segment, single round, ends assumed
Reference: no-protein control
Direction: higher = stronger binding
All sequences stand within: GGGAGUUCUACAGUCCGACGAUC … UGGAAUUCUCGGGUGCCAA
Target sequence (chain): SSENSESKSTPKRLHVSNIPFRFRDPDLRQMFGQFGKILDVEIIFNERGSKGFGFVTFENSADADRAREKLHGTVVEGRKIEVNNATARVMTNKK
Strand	RBNS enrichment (R)
UGCAGCGAGACGGCAGCACAGACCCCUGGAGGUCCAGGGGGGCCCGAGGCAGGGUCCAAACCUGAGUGAGGGCCAGCCAUGCCUCCCCUCCCAUUCCUCUGGUCCCUGCC	0.638
AUAGUCUUUAAAAAUCAGUCCCAGAAGAGAGCAUUGCUUUACUGAGGGGCCUUCUCAGUGCAGUGUCCAUGUGCCUCUAGCUCCCGUUGGUGUGGAGGGUACUGCCUUGG	0.248
CUCUGCUCACACCUGGGAAGGGGCUCUCUAAAUCCCGGCCAGAAACUCUGACUUGUGCCAACAAUAGGAUGACCCAAGGGAGAGGAAACCUAUCCUCCUCACCAGAAGAG	0.183
GGUCAGCACAGUGCCUUUUCCUCUCCUGCUCUGAGCCAGGGUGGGGCAUUCCCUCUAGAUUCAGGUUUGGGCAGGGGUCCUAUAGUCCCUGCCAUGGGGCUGCUUCCCUG	0.311
AUAUGGCGACUCCUUUUCCAGAAACUUUUCUUACCUGUUGGUUGUCUUGUUUCCUGGGUUGUUUUUAACUGAAGACAAAAUUGCUCAUUUGCCAGAGGGGACAGAAGCAU	0.627
UCAAGAAAAAUAAAAGAUUAUAAUCUCAGUUUAAAAUUACUAAUGUGUGACAACCAUACCUCAGUUUGAAAUAGAUUUAACAAGAUUAUUCCCUGACAUUUUCUUCCAUG	0.363
AAGCAGCUACGACCCAUUGCCCUCCUACCUGCUUCGCUACUGGUCCAUGGUACAGACUGUUCCAGAUCACCAAGAAAGGUACUUUCAGGAUCCCAGUGCCUAGCACUGGG	0.365
AUGUUUUCAUAUUAUGAAAUGAAUUUGUAUUUAAACAAAAAUUUAAAUUUUGGAAUCCUCUAAACAUUUUUGUAUCUUUAAUUGUUAUUAUUAAAUCAUGUAAAAGUUCU	0.75
UGCCUGUGACUGCUUUCAAACGCUAGAGGGGGCCUCUGAUUUAAAGAAAUAAAAAGGACUUUUCUAAAAUGGAUGUGUAGUUUAUUUUGCCUUUUGUAAAGCUCUUUUGG	1.3
UCCUCAUGGACAUAAAAUACAUUCUUAGUUAUUAUCAUUAUGUCAAACAAGAAUGGCAAGCCUAAGUUUGUGAGGCAUCAUCACAAUUCUGUCAAAAUAAUGUUAUGCUU	0.633
UCUGCCUGAGACCCCAAGGUCCUCUCCUCCCUAGAGGGGAGGUGGAGCAGCAGUUGACUCCUGGUUCCCUCCCUAUUUCAGCCUGGAUGUGGGGCUGGUGGAGAUGCCUC	0.476
UUAAAAGAGGUGGUUGGCAAUUUAGGAUUCAUCUGGGUCUGUCCUGGUAAAGUCCUGCUGUGCAGAUGACUGCUGUCUCCUGGGAAGGUCUCGGCACGGAGCUCUCGAGG	0.341

Block 2
Target: Fragile X messenger ribonucleoprotein 1, C-terminal low-complexity region (Fmr1, Mus musculus, UniProt P35922)
Technique: RNA Bind-n-Seq
Form: RNA
Sample: in vitro
Concentration: 200 nM
Setting: whole 134-nt RNA, ends assumed
Together with: 150 mM LiCl
Reference: input library
Direction: higher = stronger binding
Each molecule: 7-deaza-guanosine replaces G
All sequences stand within: GGGAGUUCUACAGUCCGACGAUC … UGGAAUUCUCGGGUGUCAAGG
Strand	log2 enrichment
UAGUCCAGCAUCAAGAUUCGCCGGCCUGGAUACAAAUCAGCGACUUACAGCUUUAGCUGAAGACAGACCGUUAUUUGAUGGACCUAGUAG	-2.95
CAAGUCCUGUGCUACACAUCGUAUGUACCGAAUCGGUUUGGAAAAAAAGGUUUGGAAAGUAUUAUGUUACGCCGUUCGGAUCUGCACUUC	-3.04
CUCAAGUCCUGUGCUACACAUCGUAUGUACCGAAUCGGUUUGGUUUGGAAAGGAAAGUAUUAUGUUACGCCGUUCGGAUCUGCACUUCCA	0.0823
UGGGCCUGGUGGCAUGCGGGGAGGAAGAGGUGGCCUCAUGGAUCGUGGUGGUCCCGGUGGAAUGUUCAGAGGUGGCCGUGGUGGAGACAG	0.618
UAAGGAUUCUAUCUGCUUACUGCUACAGACCUAUGUGUUAAGGAAUUCUUCUCCUCCUCCUUGCGUAGAAGUUGAUCAGCACUGUGGUCA	-0.495
GUCCUGUGCUACACAUCGUAUGUACCGAAUCGGGGUUUUUGGUUUUUGGGGUUUUUGGAAAGUAUUAUGUUACGCCGUUCGGAUCUGCAC	-1.1
GCAGGAAGUAAAAACAAAUGGAAAUGCUUCGGAUAGUGGCAGGGGUGUGGGUUGCUAAGGAAAGGGUGGGAUGGGAGUGGGUAAAGAGUU	1.6
UAACUUUAGAGGAGGAUCUGAUGGAUAUGGCAGUGGACGUGGAUUUGGGGAUGGUUAUAAUGGGUAUGGAGGAGGACCUGGAGGUGGCAA	1.38
AAGUCCUGUGCUACACAUCGUAUGUACCGAAUCGGGGAAAGGGGUGGGGAAAGGGGAAAGUAUUAUGUUACGCCGUUCGGAUCUGCACUU	-0.29
UGGCCCUGGUGGCAUGCGGGGAGGAAGAGGUGGCCUCAUGGAUCGAGGUGGUCCCGGUGGAAUGUUCAGAGGUGGCCGUGGUGGAGACAG	-0.358
UCCUGUGCUACACAUCGUAUGUACCGAAUCGGGUUUUUUGGGUUUUUUGGUUUUUUGGGGAAAGUAUUAUGUUACGCCGUUCGGAUCUGC	-1.37

Block 3
Target: Histone acetyltransferase KAT6A, both winged helices, GST fusion (KAT6A, Homo sapiens, UniProt Q92794, residues 1-181)
Technique: protein binding microarray
Form: double-stranded DNA, one strand shown
Sample: in vitro
Concentration: not given
Setting: 8-mer, flanks averaged, mean of 2 arrays, mostly near background
Reference: not given
Direction: higher = stronger binding
Residues (chain): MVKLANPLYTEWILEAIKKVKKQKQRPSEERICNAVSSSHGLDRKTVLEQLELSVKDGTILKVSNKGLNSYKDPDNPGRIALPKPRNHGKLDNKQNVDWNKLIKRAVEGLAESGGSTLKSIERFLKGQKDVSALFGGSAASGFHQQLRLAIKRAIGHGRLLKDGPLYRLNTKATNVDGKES
Strand	E-score
ATGCGGAC	0.209
ATAACAAG	-0.125
CGACCGTC	0.115
GTTGAAAC	0.0492
ACCCCGTG	0.196
ATTAGAAG	-0.105
AAGTATAA	-0.0985
ATGCGGCC	0.201
GCTTGGCC	0.0768
CATGTGCC	-0.0299
AGCCGATA	0.00514
AGCAAACA	-0.151
ACCTGGTG	-0.152
GAGTTGCC	0.0522
CAGGCGAC	0.0388
CCATATAC	-0.00263
AATGTTTG	-0.0537
AAACTAAC	-0.0543
TGTGCACA	-0.0471
GAACTTTA	0.00225
TCGACGAA	0.0477
GATAGCGC	0.316
CACAAGAA	-0.0198
ATGGGGAA	-0.217
GCCGACGA	0.167

Block 4
Organism: Saccharomyces cerevisiae
Read-out: binding
Technique: competitive growth deep sequencing
Form: peptide
Strain: cyclin D2-Cln2 fusion strain
Concentration: concentration not given
Setting: peptide tiling library
Direction: direction not given
Molecule	growth enrichment score
ARKRLELGNLGNPQ	-1.64
GLPDFVFQQQPVESEA	0.982
EAAPPTQEAQGETEPT	0.758
VEEEFFALRKRTPSAG	0.637
QYQVVDDIVSKLVFDF	0.76
KPHVSDEEEEEPPFYH	1.52
DVSERGYVILPNDYFE	0.891
RDLFDCDFGDLTPLDF	1.55

Block 5
Target: Sal-like protein 4, full length isoform A (SALL4, Homo sapiens, UniProt Q9UJQ4, residues 1-1053)
Sequence of UniProt Q9UJQ4 (whole entry, looked up): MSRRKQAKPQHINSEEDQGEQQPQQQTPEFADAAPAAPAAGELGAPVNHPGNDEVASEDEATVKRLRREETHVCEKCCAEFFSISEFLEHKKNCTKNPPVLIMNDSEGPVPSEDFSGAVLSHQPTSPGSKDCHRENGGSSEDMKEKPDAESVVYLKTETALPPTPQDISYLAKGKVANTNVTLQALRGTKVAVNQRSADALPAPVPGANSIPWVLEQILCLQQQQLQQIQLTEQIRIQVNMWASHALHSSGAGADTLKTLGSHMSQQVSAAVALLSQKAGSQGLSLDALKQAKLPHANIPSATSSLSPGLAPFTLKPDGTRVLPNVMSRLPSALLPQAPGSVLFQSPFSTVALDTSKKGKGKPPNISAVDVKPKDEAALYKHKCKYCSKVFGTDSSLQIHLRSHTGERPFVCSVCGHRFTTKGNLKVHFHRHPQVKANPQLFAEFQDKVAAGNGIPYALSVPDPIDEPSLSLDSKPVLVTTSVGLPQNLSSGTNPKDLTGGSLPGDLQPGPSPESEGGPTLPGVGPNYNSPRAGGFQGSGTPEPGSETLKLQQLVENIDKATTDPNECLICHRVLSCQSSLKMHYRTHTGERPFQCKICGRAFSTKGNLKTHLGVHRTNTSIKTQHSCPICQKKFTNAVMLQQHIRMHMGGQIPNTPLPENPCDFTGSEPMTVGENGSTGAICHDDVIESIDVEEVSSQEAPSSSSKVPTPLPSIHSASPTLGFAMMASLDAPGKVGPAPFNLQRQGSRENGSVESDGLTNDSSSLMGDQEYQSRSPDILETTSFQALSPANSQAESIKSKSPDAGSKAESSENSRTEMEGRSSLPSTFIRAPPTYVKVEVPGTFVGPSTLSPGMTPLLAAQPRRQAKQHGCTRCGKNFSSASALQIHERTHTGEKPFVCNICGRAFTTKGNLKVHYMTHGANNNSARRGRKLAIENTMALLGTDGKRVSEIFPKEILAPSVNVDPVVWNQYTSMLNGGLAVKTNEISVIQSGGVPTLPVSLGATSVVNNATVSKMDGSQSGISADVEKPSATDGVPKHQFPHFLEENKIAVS
Technique: universal PBM
Form: double-stranded DNA, one strand shown
Sample: in vitro
Concentration: 600 nM
Setting: 8-mer, flanks averaged, mean of replicates
Direction: higher = stronger binding
Strand	E-score
ACTGGACC	-0.328
ACGGGGTG	-0.253
GCGGTTGA	-0.137
AAAGGCAG	0.0647
CCAACATC	-0.19
TCCTGTAA	0.171
AGTAGAGC	0.00314
GATGACGA	0.0537
ATGATTGG	0.154
CACTATGC	0.108
CGGCTCAC	-0.195
GCATTAAA	0.275
CAGCTCAG	-0.334
TGCACCCA	-0.139
AATTAAGG	0.177
GAGGCCAC	-0.273
CCAACAGG	-0.256
ACACTCTG	0.0385
TGGCACCA	-0.225
ATTATTAG	0.407
GCGGGAGA	-0.29
CGCGACAG	-0.24
CTGTCCGA	-0.126
GCAAATTA	0.212
CAATCAGG	-0.059
